Measured values gathered from unrelated publications.
Each line is one published result; not all experiments were run side by side. “And” joins repeats or separate records; there may be more than shown. ± marks the error that the study gave.
NR3C1: Glucocorticoid receptor (NR3C1, Homo sapiens, UniProt P04150)
Dual specificity protein phosphatase 6: Dual specificity protein phosphatase 6 (Homo sapiens, UniProt Q16828)

Protein sequences, listed by entry. Tags and fused reporters are not part of them. Residues count along the entry.
UniProt P04150, whole entry: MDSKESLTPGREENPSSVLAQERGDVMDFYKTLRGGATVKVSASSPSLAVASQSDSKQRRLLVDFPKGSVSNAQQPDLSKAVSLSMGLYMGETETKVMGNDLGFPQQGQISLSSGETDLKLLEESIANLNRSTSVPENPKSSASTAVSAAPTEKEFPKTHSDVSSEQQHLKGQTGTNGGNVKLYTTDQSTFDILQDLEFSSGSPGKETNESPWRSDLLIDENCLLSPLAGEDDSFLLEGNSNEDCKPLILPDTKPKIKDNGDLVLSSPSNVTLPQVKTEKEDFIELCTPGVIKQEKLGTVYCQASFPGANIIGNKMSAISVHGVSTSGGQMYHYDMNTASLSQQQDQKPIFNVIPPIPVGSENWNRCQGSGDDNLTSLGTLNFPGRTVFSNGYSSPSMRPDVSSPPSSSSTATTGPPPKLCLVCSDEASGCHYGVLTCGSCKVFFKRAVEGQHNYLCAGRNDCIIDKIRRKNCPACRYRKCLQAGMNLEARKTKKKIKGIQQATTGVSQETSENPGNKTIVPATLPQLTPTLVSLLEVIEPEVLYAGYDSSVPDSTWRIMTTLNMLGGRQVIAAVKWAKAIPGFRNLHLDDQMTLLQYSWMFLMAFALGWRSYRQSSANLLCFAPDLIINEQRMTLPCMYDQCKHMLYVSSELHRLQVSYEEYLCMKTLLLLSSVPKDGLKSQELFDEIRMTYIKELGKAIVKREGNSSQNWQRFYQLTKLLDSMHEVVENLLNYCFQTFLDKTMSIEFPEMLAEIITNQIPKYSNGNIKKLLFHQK
UniProt Q16828, whole entry: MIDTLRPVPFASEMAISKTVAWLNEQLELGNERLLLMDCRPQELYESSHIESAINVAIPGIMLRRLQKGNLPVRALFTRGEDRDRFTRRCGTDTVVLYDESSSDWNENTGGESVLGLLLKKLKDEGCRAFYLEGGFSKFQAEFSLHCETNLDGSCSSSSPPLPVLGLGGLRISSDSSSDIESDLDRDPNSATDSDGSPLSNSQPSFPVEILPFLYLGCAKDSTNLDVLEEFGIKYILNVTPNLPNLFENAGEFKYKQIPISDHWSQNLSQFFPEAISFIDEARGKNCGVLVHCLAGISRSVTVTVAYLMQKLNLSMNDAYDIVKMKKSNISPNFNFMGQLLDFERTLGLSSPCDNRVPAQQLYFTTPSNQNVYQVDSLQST
UniProt P18031, whole entry: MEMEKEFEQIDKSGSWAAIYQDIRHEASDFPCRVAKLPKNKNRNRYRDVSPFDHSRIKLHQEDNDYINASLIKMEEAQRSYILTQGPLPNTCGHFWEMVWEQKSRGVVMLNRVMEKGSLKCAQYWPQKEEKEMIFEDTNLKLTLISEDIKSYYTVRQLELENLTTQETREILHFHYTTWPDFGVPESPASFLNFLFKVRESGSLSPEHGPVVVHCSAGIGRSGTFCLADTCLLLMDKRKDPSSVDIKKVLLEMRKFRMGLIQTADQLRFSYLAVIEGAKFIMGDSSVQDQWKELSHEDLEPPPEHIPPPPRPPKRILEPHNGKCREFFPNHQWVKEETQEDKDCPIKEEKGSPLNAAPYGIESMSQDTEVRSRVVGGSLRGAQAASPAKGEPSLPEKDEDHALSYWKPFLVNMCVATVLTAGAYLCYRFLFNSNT
UniProt Q8TCT1, 1-292 isoform 3: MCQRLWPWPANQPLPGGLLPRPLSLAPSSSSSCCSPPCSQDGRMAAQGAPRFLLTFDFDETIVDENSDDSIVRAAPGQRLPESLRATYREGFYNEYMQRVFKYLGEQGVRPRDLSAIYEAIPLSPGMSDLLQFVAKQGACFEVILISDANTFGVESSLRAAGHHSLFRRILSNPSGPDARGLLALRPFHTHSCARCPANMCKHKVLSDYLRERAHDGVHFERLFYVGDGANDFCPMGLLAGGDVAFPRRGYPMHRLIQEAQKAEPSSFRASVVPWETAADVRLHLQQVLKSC
UniProt Q60492, whole entry: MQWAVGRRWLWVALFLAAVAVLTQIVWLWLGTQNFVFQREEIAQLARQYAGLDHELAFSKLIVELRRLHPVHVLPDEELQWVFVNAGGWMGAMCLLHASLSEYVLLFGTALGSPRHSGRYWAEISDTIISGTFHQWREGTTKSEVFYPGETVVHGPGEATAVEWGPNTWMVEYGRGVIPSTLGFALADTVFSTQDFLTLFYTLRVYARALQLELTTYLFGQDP
UniProt P50406, whole entry: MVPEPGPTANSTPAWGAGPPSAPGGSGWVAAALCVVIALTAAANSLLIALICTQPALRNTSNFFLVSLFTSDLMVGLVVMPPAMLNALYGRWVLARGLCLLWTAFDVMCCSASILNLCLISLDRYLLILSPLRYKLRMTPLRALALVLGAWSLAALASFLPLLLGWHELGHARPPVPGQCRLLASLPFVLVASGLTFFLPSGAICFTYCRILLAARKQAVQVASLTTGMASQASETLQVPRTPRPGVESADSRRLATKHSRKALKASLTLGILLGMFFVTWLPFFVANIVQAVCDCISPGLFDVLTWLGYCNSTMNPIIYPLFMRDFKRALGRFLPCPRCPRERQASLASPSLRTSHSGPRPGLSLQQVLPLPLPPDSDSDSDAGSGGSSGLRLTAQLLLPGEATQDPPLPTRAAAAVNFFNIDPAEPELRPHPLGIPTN
UniProt P48729, whole entry: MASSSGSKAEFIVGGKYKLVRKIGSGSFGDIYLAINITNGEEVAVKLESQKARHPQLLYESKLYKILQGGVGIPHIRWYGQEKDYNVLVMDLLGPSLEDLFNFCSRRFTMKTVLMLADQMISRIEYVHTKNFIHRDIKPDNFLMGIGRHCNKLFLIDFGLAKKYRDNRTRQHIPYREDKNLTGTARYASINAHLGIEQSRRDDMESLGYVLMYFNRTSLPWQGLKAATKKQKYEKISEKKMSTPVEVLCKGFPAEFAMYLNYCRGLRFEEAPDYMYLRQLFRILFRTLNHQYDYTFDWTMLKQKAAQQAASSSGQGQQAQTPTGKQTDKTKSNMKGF
UniProt Q9UPY5, whole entry: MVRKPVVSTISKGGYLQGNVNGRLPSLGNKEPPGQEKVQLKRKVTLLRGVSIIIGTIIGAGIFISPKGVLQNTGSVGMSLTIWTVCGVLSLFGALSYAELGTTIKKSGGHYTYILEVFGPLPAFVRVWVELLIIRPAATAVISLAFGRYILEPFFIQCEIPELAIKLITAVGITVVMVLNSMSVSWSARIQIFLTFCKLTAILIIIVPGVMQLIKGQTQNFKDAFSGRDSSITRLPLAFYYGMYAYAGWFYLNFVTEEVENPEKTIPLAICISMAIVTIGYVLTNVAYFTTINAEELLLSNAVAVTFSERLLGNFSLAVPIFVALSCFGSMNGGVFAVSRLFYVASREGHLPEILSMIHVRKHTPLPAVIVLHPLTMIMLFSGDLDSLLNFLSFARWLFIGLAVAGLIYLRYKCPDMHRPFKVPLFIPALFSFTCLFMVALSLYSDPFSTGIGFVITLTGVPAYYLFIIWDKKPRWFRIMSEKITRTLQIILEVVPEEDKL
UniProt Q62666, whole entry: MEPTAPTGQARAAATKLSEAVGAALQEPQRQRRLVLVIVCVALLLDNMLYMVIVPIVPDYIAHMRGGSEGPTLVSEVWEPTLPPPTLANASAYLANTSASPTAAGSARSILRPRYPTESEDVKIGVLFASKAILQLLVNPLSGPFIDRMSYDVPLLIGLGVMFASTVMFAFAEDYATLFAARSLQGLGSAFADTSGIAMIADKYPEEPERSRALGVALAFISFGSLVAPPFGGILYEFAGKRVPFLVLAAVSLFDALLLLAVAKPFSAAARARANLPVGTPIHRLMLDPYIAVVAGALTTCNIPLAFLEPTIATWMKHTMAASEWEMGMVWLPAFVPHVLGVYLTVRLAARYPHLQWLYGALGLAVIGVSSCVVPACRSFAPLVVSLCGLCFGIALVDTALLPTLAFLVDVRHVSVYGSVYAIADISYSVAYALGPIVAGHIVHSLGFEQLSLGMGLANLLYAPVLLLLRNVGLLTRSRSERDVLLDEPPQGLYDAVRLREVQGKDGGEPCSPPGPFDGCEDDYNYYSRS
UniProt P51452, whole entry: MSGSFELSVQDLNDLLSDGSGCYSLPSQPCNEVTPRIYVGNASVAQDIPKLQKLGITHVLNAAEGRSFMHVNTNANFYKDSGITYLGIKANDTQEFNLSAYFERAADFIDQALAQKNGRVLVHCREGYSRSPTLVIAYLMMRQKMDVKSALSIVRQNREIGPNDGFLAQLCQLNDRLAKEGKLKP
UniProt P55201, whole entry: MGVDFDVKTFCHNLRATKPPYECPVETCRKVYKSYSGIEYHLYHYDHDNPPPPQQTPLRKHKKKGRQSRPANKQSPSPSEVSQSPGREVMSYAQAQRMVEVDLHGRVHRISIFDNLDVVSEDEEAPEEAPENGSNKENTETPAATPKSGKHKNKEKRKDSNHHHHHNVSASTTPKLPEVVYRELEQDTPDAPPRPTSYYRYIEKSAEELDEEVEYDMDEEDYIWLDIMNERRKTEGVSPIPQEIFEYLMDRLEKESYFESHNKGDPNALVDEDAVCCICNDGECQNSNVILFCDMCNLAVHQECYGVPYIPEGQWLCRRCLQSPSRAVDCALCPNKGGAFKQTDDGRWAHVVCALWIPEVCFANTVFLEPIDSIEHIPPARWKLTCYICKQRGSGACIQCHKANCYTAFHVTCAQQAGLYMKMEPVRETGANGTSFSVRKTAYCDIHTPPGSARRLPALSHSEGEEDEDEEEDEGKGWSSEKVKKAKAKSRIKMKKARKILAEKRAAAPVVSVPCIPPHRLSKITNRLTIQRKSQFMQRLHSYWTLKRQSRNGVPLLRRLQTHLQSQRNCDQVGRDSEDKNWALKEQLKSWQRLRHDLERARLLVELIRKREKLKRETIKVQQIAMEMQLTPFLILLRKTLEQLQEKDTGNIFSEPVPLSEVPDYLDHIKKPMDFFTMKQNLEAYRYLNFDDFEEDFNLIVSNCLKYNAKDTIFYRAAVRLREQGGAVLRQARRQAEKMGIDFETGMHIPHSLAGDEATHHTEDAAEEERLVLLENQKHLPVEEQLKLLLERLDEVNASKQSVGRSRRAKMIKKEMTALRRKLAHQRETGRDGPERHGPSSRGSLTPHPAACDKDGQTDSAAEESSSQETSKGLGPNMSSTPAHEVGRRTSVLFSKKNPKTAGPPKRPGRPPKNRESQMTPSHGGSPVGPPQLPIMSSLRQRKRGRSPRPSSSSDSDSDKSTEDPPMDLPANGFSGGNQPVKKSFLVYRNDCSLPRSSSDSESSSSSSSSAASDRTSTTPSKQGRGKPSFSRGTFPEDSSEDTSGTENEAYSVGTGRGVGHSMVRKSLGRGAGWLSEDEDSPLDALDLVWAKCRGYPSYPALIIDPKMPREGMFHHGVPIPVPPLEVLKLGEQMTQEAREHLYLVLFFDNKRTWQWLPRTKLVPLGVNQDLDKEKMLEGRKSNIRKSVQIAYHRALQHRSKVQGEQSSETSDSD
UniProt Q9Y2R2, whole entry: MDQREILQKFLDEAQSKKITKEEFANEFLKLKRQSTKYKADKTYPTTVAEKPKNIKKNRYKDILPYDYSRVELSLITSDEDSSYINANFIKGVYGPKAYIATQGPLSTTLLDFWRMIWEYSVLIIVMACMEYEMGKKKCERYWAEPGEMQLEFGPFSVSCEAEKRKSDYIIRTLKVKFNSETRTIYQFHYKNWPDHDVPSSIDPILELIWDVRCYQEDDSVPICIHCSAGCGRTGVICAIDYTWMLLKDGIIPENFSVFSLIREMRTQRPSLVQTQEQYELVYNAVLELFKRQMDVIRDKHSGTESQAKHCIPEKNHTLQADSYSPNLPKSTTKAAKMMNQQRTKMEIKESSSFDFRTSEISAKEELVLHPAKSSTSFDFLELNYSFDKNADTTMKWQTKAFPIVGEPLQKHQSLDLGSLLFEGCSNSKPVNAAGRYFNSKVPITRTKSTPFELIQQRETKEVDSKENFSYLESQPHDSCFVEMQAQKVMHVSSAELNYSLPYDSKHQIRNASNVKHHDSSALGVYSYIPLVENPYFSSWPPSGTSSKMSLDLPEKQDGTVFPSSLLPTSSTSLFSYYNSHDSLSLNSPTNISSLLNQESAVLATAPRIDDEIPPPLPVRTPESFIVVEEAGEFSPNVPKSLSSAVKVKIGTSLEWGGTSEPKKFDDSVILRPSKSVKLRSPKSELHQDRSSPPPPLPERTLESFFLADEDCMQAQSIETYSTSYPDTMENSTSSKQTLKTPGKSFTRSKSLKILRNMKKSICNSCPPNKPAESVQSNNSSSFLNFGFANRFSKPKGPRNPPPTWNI
UniProt Q9NYA1, 1-470 isoform 2: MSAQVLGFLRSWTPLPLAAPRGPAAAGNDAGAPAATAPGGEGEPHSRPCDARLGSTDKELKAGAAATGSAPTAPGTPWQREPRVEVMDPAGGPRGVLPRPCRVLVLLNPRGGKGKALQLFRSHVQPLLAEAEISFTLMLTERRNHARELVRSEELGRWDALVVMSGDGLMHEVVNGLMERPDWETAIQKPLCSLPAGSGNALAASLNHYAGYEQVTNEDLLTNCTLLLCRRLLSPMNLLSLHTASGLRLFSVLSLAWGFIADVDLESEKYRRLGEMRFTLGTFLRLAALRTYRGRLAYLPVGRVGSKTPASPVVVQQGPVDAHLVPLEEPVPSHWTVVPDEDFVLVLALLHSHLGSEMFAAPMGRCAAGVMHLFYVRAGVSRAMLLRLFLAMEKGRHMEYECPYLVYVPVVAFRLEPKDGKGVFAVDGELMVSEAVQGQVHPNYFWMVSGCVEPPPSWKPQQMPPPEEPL

For `CC(C)C1=C[C@@]23CC[C@@H]4[C@](C)(CCC[C@@]4(C)C(=O)O)[C@@H]2C[C@@H]1[C@@H](C(=O)O)[C@@H]3C(=O)O`, the EC50 was over 9 µM (NR3C1; nuclear translocation, agonist, enzyme fragment complementation).
For `O=c1/c(=C/c2ccccc2Cl)sc2nc3cc(Br)cnc3n12`, the IC50 was over 100 µM (PTPN1 (Homo sapiens, UniProt P18031); phosphatase activity, inhibitor; with: OMFP).
For `CN(C)S(=O)(=O)c1cccc(-n2sc3ccccc3c2=O)c1`, the Ki was 0.22 ± 0.01 µM (Phosphoethanolamine/phosphocholine phosphatase (Homo sapiens, UniProt Q8TCT1); enzyme activity, inhibitor; with: phosphoethanolamine).
`O=C(c1ccc(OCCF)cc1)C1CCN(C2Cc3ccccc3CC2O)CC1` (single isomer, unassigned) gave a Ki of 7.38 ± 1.24 µM (SIGMAR1 (Cavia porcellus, UniProt Q60492); radioligand displacement; with: (+)-[3H]pentazocine).
Under phosphorylation, `Cc1c(O)cc2c(c1C)O[C@](C)(CCCC(C)C)CC2` is recorded as “decreased” (measured: Akt Ser473; athymic nude mouse, PC-3-luc xenograft, tumour; intraperitoneal, 50 mg/kg daily, 21 days).
For `Cc1cc(C)c2nc3s/c(=C\c4ccc(-c5ccccc5C(=O)O)o4)c(=O)n3c2c1`, the IC50 was 17 µM (Dual specificity protein phosphatase 6; phosphatase activity, inhibitor; with: OMFP).
With `C[C@@]12CC[C@H](O)C[C@@H]1CC[C@@H]1[C@@H]2CC[C@@]2(C)[C@@H](C3=CC(=O)OC3)[C@H](O)C[C@]12O` the EC50 was over 9 µM (NR3C1; nuclear translocation, agonist, enzyme fragment complementation).
The specific binding of `Fc1cc(-c2ccc3c(n2)[nH]c2ccncc23)ccn1` [isotope labelled] is reported as 20.2 a.u. (Microtubule-associated protein tau, paired helical filaments (MAPT, Homo sapiens, UniProt P10636); radioligand binding; PHF tau brain homogenate; 102.04 nM; higher = more binding).
`CN1CCN(c2ccc3c(c2)[C@H]2C[C@H]3CCN2S(=O)(=O)c2cc(Cl)cc(Cl)c2)CC1` gave a Ki of 0.082 µM (HTR6 (Homo sapiens, UniProt P50406); radioligand competition binding).
`Fc1cccc(-n2cnc3c(NCc4nc5cc(Cl)ccc5[nH]4)nc(N4CCNCC4)nc32)c1` gave a remaining binding of 10% (CSNK1A1 (Homo sapiens, UniProt P48729); KINOMEscan competition binding; 10 µM; reference: control).
With `C[C@H]1[C@H](C)CC[C@]2(C(=O)O)CC[C@]3(C)C(=CC[C@@H]4[C@]5(C)C[C@H](O)[C@@H](O)[C@@](C)(CO)[C@@H]5[C@H](O)C[C@@]43C)[C@H]12` the EC50 was over 9 µM (NR3C1; nuclear translocation, agonist, enzyme fragment complementation).
For `Nc1c(N=Nc2ccc(SSc3ccc(N=Nc4cc(S(=O)(=O)O)c5ccccc5c4N)cc3)cc2)cc(S(=O)(=O)O)c2ccccc12`, the Ki was 4.3 µM and ~4 µM (Cystine/glutamate transporter, with SLC3A2 (SLC7A11, Homo sapiens, UniProt Q9UPY5); L-glutamate uptake, inhibitor; SNB-19; with: 3H-L-glutamate).
For `CC1=Cc2ccccc2C12CCN(C1Cc3ccccc3CC1O)CC2` (single isomer, unassigned), the Ki was 0.016 ± 0.004 µM (Vesicular acetylcholine transporter (Rattus norvegicus, UniProt Q62666); binding, radioligand displacement; PC12 expressing VAChT; with: [3H]vesamicol).
`COc1cc(CC(=O)NCC(NC(=O)C(CCCNC(=O)c2cccc(I)c2)NC(=O)C(Cc2ccc(C(F)(F)P(=O)(O)O)cc2)NC(=O)c2ccc(C)c(Br)c2)C(N)=O)ccc1O` (stereo not shown) — result for inhibition: “no inhibition” (DUSP3 (Homo sapiens, UniProt P51452); enzyme activity; 10 µM).
With `C=C(C)COc1ccc2c(c1)CC[C@@H]1[C@H]3C/C(=N\O)C(=O)[C@@]3(C)CC[C@@H]21` the EC50 was over 9 µM (NR3C1; nuclear translocation, agonist, enzyme fragment complementation).
With `CC[C@@H]1C(=O)N(C)c2cnc(Nc3ccc(C(=O)NC4CCN(C)CC4)cc3OC)nc2N1C1CCCC1` the delta Tm was 1.57 ± 0.42 °C (Peregrin, bromodomain (BRPF1, Homo sapiens, UniProt P55201); 10 µM).
`CCCCCCCCCCCCCCCC(=O)O` has an EC50 of 190 µM (Ppara (Mus musculus, UniProt P23204); coactivator recruitment, agonist, biolayer interferometry, measured: PGC-1alpha peptide; pH 7.4, 25 °C, 0.1% fatty acid-free BSA).
`O=c1/c(=C/c2ccc(-c3ccccc3[N+](=O)[O-])o2)sc2nc3cc(Br)cnc3n12` has an IC50 of about 100 µM (PTPN22 (Homo sapiens, UniProt Q9Y2R2); phosphatase activity, inhibitor; with: OMFP).
For `O=C(Nc1cccnn1)N1CC(Oc2ccc(-c3ccccc3F)cn2)C1`, “dose giving maximum increase” read 300 to 500 mg/day (measured: plasma endocannabinoids; human, plasma; oral, repeated daily dosing).
`CCN1CCN(Cc2ccc(NC(=O)c3ccc(C)c(Oc4ncnc5cc(OC)c(OC)cc45)c3)cc2C(F)(F)F)CC1`: “residual probe binding” 2.3% (FGR (Homo sapiens, UniProt P09769); KINOMEscan competition binding; 1.0 µM).
`O=c1/c(=C/c2ccc(-c3cc(Cl)cc(Cl)c3)o2)sc2nc3cc(Br)cnc3n12` gave an IC50 of over 100 µM (Dual specificity protein phosphatase 6; phosphatase activity, inhibitor; with: OMFP).
With `O=C1C(=Cc2ccc(O)c(O)c2)Oc2ccccc21` the Ki was 10 µM (SPHK1 (Homo sapiens, UniProt Q9NYA1); inhibitor, FlashPlate).
